Published values of several laboratories.
Lines come from different studies, so protocols differ.
UniProt Q14680, sequence (whole entry, looked up): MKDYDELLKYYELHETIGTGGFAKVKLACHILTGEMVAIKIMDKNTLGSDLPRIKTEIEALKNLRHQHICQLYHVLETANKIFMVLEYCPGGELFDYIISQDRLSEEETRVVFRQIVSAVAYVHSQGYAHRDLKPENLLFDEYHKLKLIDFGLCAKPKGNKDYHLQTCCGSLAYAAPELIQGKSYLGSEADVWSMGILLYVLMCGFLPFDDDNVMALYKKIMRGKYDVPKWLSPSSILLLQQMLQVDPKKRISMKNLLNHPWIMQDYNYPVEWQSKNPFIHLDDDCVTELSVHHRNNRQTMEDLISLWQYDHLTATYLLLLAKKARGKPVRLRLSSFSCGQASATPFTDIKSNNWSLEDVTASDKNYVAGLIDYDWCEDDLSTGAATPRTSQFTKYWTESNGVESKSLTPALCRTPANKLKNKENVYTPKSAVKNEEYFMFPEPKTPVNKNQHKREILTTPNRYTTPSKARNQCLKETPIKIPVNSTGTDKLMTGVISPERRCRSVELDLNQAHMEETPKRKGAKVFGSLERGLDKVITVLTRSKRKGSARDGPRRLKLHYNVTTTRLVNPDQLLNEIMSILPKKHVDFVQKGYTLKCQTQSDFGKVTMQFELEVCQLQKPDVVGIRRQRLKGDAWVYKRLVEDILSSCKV

CC(C)c1ccc(N(C)c2ccc3c(c2)OCC[C@H]3CNc2cnccc2C(=O)O)cc1  IC50 (TOV112D; cell growth or viability, ATP luminescence; 7 days): 0.00623 µM
COC1CN([C@H]2CC[C@H]([C@@]3(C)Oc4c(Cl)cc(C(=O)NCc5c(SC)cc(C)[nH]c5=O)c(C)c4O3)CC2)C1  log2 fold change (RNA-seq, item: HOXA4 mouse homolog; mouse, HT-1376 xenograft, whole blood; dose not given; reference: vehicle): 0.976
CN1CCCNC(=O)c2cccc(c2)C(=O)NCCCN(C)CCCNc2cccc3c2C(=O)c2cccc(c2C3=O)NCCC1  log2 fold change (SAS; RNA-Seq, item: IL15RA mRNA; 1 µM, 6 h; reference: untreated cells): 1
CCN(CC)CC(=O)Nc1cccc(-n2cc(-c3ccc4ccc(-c5cn(-c6cccc(NC(=O)CN(CC)CC)c6)nn5)cc4c3)nn2)c1  fold regulation (RCC4; PCR angiogenesis array, item: TNF; 5 x IC50, 4 h, normoxia; reference: untreated): -1.61 fold
CNS(=O)(=O)Nc1nccc(Cc2c(C)c3ccc(Oc4ncccc4F)cc3oc2=O)c1F  IC50 (KP-2; cell viability, CellTiter-Glo; 7 days): 0.0209 µM
C=CC(=O)Nc1cccc(Cn2ncc3cnc(Nc4cnn(CCOC)c4)nc32)c1  percent of control (MAST1 human; binding, KINOMEscan; 100 nM; lower = stronger binding): 100%
COc1ccc(CCN(C)CCCC(C#N)(c2ccc(OC)c(OC)c2)C(C)C)cc1OC (stereo not drawn)  translation activity (Trypanosoma cruzi; reporter mRNA translation, inhibitor, item: Renilla luciferase mRNA; cell-free extract; concentration not given, test 1; reference: positive over negative control): 102%
Cc1nn(-c2cccc(N)c2)c(=O)c2cnc(Nc3ccc(N4CCNCC4)cc3)nc12  IC50 (MELK (Homo sapiens, UniProt Q14680); enzyme activity, inhibitor): 1.48 µM
Cc1ncsc1-c1ccc(C(C)NC(=O)C2CC(O)CN2C(=O)C(NC(=O)CCCCCCCCCCN2CCCC(Nc3ncc(Cl)c(Nc4ccccc4S(=O)(=O)C(C)C)n3)C2)C(C)(C)C)cc1 (stereo not drawn)  log2 fold change (22Rv1; RNA-seq, item: SLC5A4-AS1; concentration not given; reference: DMSO): -1.26
CC1=CC(OC=C2C(=O)OC3c4ccccc4CC23)OC1=O (racemic)  Emax (Phelipanche ramosa; seed germination; 1 µM; reference: (±)-compound): 100%
CCCn1ncc(CN2CCCC(C(=O)c3cccc(OC(C)C)c3)C2)c1C (stereo not drawn)  translation activity (Trypanosoma cruzi; reporter mRNA translation, inhibitor, item: Renilla luciferase mRNA; cell-free extract; concentration not given, test 1; reference: positive over negative control): 86.9%
Nc1ncc(-c2cc(-c3cnn(CC(F)(F)F)c3)ncc2F)nc1C(=O)NC1CNCC(F)C1 (stereo not drawn)  remaining binding (STK33; KINOMEscan; 1 µM; reference: DMSO control): 90%

Repeated from above:
C=CC(=O)Nc1cccc(Cn2ncc3cnc(Nc4cnn(CCOC)c4)nc32)c1  percent of control (MAST1 human; binding, KINOMEscan; 100 nM; lower = stronger binding): 100%
